Earlier results as cited in several papers.
Lines come from different studies, so protocols differ. Numbers after ± are the reported error. In brackets after ≈: the same amount, converted by molar mass.
Sequence of UniProt Q99755 (whole entry, looked up): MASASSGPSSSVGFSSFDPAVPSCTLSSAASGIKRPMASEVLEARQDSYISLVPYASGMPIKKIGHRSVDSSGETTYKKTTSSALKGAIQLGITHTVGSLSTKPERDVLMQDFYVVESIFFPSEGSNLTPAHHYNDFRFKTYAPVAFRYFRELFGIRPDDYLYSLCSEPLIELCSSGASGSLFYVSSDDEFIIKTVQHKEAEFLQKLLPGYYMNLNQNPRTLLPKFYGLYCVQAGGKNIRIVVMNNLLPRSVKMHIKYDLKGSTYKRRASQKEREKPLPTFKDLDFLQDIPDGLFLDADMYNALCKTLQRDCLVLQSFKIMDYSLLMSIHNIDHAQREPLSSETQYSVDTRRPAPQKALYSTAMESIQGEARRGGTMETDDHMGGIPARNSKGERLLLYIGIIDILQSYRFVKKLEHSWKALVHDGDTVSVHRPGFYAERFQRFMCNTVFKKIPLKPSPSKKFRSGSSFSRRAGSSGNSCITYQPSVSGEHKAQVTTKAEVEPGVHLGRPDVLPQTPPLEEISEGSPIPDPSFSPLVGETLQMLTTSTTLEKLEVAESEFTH

SMILES | tested on | test | system | conditions | how to read | measurement | value
CCN1CCN(Cc2ccc(Nc3ncc(F)c(-c4cc(F)c5nc(C)n(C(C)C)c5c4)n3)nc2)CC1 | – | – | human | 150 mg single dose, added: [14C]compound | relative to: dose | faecal excretion unchanged | 7%
C=CC(=O)Nc1cc(Nc2nccc(-c3cn(C)c4ccccc34)n2)c(OC)cc1N(C)CCN(C)C | – | – | – | pH 7.4 | – | kinetic solubility | 7 µM (≈ 3.5 µg/mL)
O=C(OCc1ccccc1)c1ccc(O)cc1 | – | – | – | pH 7.4 | – | logD | 3.52
CN1CC(=O)N2[C@H](c3ccc4c(c3)OCO4)c3[nH]c4ccccc4c3C[C@@H]2C1=O | – | – | rat | oral, 1 mg/kg | – | terminal half-life | 1.28 ± 0.462 h
Cc1nc(NC(=O)N2CCC[C@H]2C(N)=O)sc1-c1ccnc(C(C)(C)C(F)(F)F)c1 | – | – | human | – | – | median Tmax | 2 to 4 h
C=CC(=O)N1CCC([C@@H]2CCNc3c(C(N)=O)c(-c4ccc(Oc5ccccc5)cc4)nn32)CC1 | – | – | human patients | oral, 320 mg once daily, day 1 | – | AUC(0-8h) | 2450 ± 1060 ng·h/mL
COc1cc(NC(=O)CCN2CCC(OC(=O)Nc3ccccc3-c3ccccc3)CC2)c(Cl)cc1CNC[C@H](O)c1ccc(O)c2[nH]c(=O)ccc12 | – | – | human, plasma | inhaled | – | Tlast | 10 h
CNC(C)C1CCC(N)C(OC2C(N)CC(N)C(OC3OCC(C)(O)C(NC)C3O)C2O)O1 (stereo not shown) | Enterobacter cloacae | – | clinical isolate RKI-No_243/15 | – | – | MIC | 1 µg/mL (≈ 2.09 µM)
Cn1cc(C[C@@H](N)C(=O)O)c2ccccc21 | – | – | patients | oral, 1200 mg twice daily, phase II trial | – | tolerability | not toxic
CC(=O)c1c(C)c2cnc(Nc3ccc(N4CCNCC4)cn3)nc2n(C2CCCC2)c1=O | – | – | female rat | 200 mg/kg | – | Cmax | 586 ng/mL
CCCCCCCCCCCCCCCCOCCCOP(=O)(O)CO[C@H](CO)Cn1ccc(N)nc1=O | – | – | – | – | relative to: cidofovir | intracellular half-life improvement | 14 fold
CNC(=O)c1ccc(N2C(=S)N(c3ccc(C#N)c(C(F)(F)F)c3)C(=O)C2(C)C)cc1F | – | inhibitor | human | concentration not given, added: digoxin | – | digoxin plasma exposure increase | 33%
C=CCCC(=O)O | – | craniofacial deformation | zebrafish embryo | nominal concentration | – | EC10 | 626 µM
CO/N=C(\C(=O)N[C@@H]1C(=O)N2C(C(=O)O)=C(CSc3nc(=O)c(=O)[nH]n3C)CS[C@H]12)c1csc(N)n1 | – | – | healthy Chinese subjects | – | – | t_half | 8.5 h
Nc1cc(C(F)(F)F)c(-c2nc(N3CCOCC3)nc(N3CCOCC3)n2)cn1 | PIP5K1A (Homo sapiens, UniProt Q99755) | enzyme activity | – | 10 µM | relative to: untreated | remaining activity | 82%
Cc1cn([C@@H]2C[C@@H](O)[C@H](CO)O2)c(=O)[nH]c1=O | – | – | woodchuck | 10 mg/kg | – | oral bioavailability | 39%
CCCOc1ccc(S(=O)(=O)N2CCN(CCO)CC2)cc1-c1nc2c(CCC)cn(CC)c2c(=O)[nH]1 | – | – | healthy male volunteers | dose not given, without alcohol | – | systolic blood pressure change | -8.5 mmHg
CCN1CCN(Cc2ccc(Nc3ncc(F)c(-c4cc(F)c5nc(C)n(C(C)C)c5c4)n3)nc2)CC1 | – | – | human | 200 mg twice daily, monotherapy | – | Css,max | 298 ng/mL
O=C(O)CN(CCN(CC(=O)O)CC(=O)O)CCN(CC(=O)O)CC(=O)O | – | pH-potentiometry, refers to: logK4H | 0.1 M NaClO4 | 25 °C | – | protonation constant (log) | 2.9
CCC(CC)C(=O)O | – | small eyes | zebrafish embryo | nominal concentration | – | EC10 | 1000 µM
COc1ccc2[nH]c([S+]([O-])Cc3ncc(C)c(OC)c3C)nc2c1 (stereo not shown) | – | – | human obese subjects | oral tablet, 20 mg once daily, day 6 | – | AUC | 1510 ng·h/mL
COc1cc(N2CCC3(CCN(C)CC3)CC2)ccc1Nc1ncc(Cl)c(Nc2ccccc2P(C)(C)=O)n1 | – | – | human, feces | dose not given | – | excretion | 68.6%
Cc1ccc(C(=O)N(CCCN)C(c2nc3snc(C)c3c(=O)n2Cc2ccccc2)C(C)C)cc1 (stereo not shown) | – | – | solid tumour patients | intravenous, 1 h infusion, 28-day schedule, three-weekly | – | dose with dose-limiting neutropenia | > 30 mg

SMILES | tested on | test | system | conditions | how to read | measurement | value
CC(C)(CO)c1cc2cc(NC(=O)C3(c4ccc5c(c4)OC(F)(F)O5)CC3)c(F)cc2n1C[C@@H](O)CO | – | – | microsomal incubation | CYP2C8 Ki | – | fraction unbound | 0.738
CN[C@@H](C)C(=O)N[C@H]1CN(S(=O)(=O)c2cccc(S(=O)(=O)N3CC[C@H]4CC[C@@H](C(=O)NC(c5ccccc5)c5ccccc5)N4C(=O)[C@@H](NC(=O)[C@H](C)NC)C3)c2)CC[C@H]2CC[C@@H](C(=O)NC(c3ccccc3)c3ccccc3)N2C1=O | – | – | advanced solid tumour patients | dose not given, monotherapy | – | TEAE decreased appetite incidence | 13%
CN(C)C(=O)c1cc2cnc(Nc3ccc(N4CCNCC4)cn3)nc2n1C1CCCC1 | – | refers to: constipation | advanced solid tumour or lymphoma patients | dose not given, continuous dosing | relative to: patients | adverse event incidence | 21.1%
C[Si]1(C)O[Si](C)(C)O[Si](C)(C)O[Si](C)(C)O[Si](C)(C)O1 | – | – | – | 28 °C | – | log KAW | 1.1
O=C(O)CN1CCNCCN(CC(=O)O)CCN(CC(=O)O)CC1 | – | – | – | 0.15 M NaCl | – | sum of log KiH | 30.3
CC(C)(O/N=C(\C(=O)N[C@@H]1C(=O)N2C(C(=O)[O-])=C(C[n+]3ccccc3)CS[C@H]12)c1csc(N)n1)C(=O)O | Escherichia coli | – | clinical isolate RKI-No_330/16 | – | – | MIC | ≤ 2 µg/mL
CC(C)NCC(O)COc1cccc2ccccc12 (stereo not shown) | – | – | rat | – | – | plasma clearance | 76.5 mL/min/kg
O=C(CCCCCCC(=O)Nc1ccccc1)NO | – | – | BALB/c nude mouse | oral, 50 mg/kg single dose | – | Cmax | 2000 nM
N#C[C@@]1(c2ccc3c(N)ncnn23)O[C@H](CO)[C@@H](O)[C@H]1O | – | – | dog, plasma | intravenous, 2 mg/kg, 8 h, solution | – | plasma concentration | 198 ng/mL
CNC[C@H](O)[C@@H](O)[C@H](O)[C@H](O)CO.O=C([O-])CN1CCN(CC(=O)[O-])CCN(CC(=O)O)CCN(CC(=O)[O-])CC1.[Gd+3] | – | – | 3.0 M NaClO4 | 25 °C | – | stability constant KGd(HL) | 14 M⁻¹
C=C1[C@H](CO)[C@@H](O)C[C@@H]1n1cnc2c(=O)[nH]c(N)nc21 | – | – | rat | 25 mg/kg | – | oral bioavailability | 37 to 80%
N=C(N)NCCC[C@H](NC(=O)[C@H](CCCNC(=N)N)NC(=O)[C@H](CCCCN)NC(=O)[C@H](CCC(N)=O)NC(=O)[C@H](CCCCN)NC(=O)[C@H](Cc1ccc(O)cc1)NC(=O)[C@@H](N)CCCCN)C(=O)N[C@@H](CO)C(=O)N[C@@H](Cc1ccc(O)cc1)C(=O)N[C@@H](CCCCN)C(=O)O | – | – | beagle dog | intravenous, dose not given, repeated-dose toxicity | – | NOAEL | 1150 µg/kg/day
Nc1nc2cc(-c3ccc4ncc(C(=O)N5CCOCC5)n4c3)ccc2o1 | – | – | rat | – | – | well tolerated dose | ≤ 50 mg/kg/day
CCN(c1cc(-c2ccc(CN3CCOCC3)cc2)cc(C(=O)NCc2c(C)cc(C)[nH]c2=O)c1C)C1CCOCC1 | – | – | adult patients | dose not given, clinical trials | – | AML/MDS incidence | 0.6%
c1ccc2cc3ccccc3cc2c1 | – | slow stirring | – | – | – | logKow | 4.73
Cc1c(C(=O)O)ccc2c3n(nc12)[C@@H]1[C@H](C3)N(CC2CC2)[C@@]2(C(=O)Nc3cc(Cl)ccc32)[C@H]1c1cccc(Cl)c1F | – | – | FVB mice, brain, plasma | – | – | Kp | 0.009
Cc1cc(-c2nccc3c2ccn3CC(=O)Nc2ccc(-c3cnccn3)cn2)ccn1 | – | – | dog | up to 30 mg/kg/day, days 5 and 25 | – | ECG effects | no effect
CNC(=O)c1ccc(N2C(=S)N(c3ccc(C#N)c(C(F)(F)F)c3)C(=O)C2(C)C)cc1F | – | – | prostate cancer patients | oral | – | apparent oral clearance | 0.61 ± 0.2 L/h
O=C1CC[C@H](N2Cc3cc(N4CCN(CC5CCN(c6ccc([C@@H]7c8ccc(O)cc8CC[C@@H]7c7ccccc7)cc6)CC5)CC4)ccc3C2=O)C(=O)N1 | – | – | heavily pretreated patients | dose not given, monotherapy, interim data | – | tolerability | not toxic
COc1cc2c(Oc3ccc4[nH]c(C)cc4c3F)ccnc2cc1OCC1(N)CC1 | – | – | rat | oral | – | oral bioavailability | ~34%
Nc1ncnc2c1ncn2[C@@H]1O[C@H](CO)C[C@@H]1F | – | – | dog | 50 mg/kg | – | oral bioavailability | 83%
CN(C)C(=N)N=C(N)N | – | – | patients with liver failure | – | – | rate constant k12 | 0.0194 min⁻¹
CO[C@@H](C)Cn1c(=O)n(C)c2cnc3ccc(-c4cncc(C(C)(C)O)c4)cc3c21 | – | refers to: nausea | cancer patients | dose not given, monotherapy | – | patients with related adverse event | 36.5%

Some of these lines once more:
SMILES | tested on | test | system | conditions | how to read | measurement | value
Nc1nc2cc(-c3ccc4ncc(C(=O)N5CCOCC5)n4c3)ccc2o1 | – | – | rat | – | – | well tolerated dose | ≤ 50 mg/kg/day
CCN(c1cc(-c2ccc(CN3CCOCC3)cc2)cc(C(=O)NCc2c(C)cc(C)[nH]c2=O)c1C)C1CCOCC1 | – | – | adult patients | dose not given, clinical trials | – | AML/MDS incidence | 0.6%
c1ccc2cc3ccccc3cc2c1 | – | slow stirring | – | – | – | logKow | 4.73
Cc1c(C(=O)O)ccc2c3n(nc12)[C@@H]1[C@H](C3)N(CC2CC2)[C@@]2(C(=O)Nc3cc(Cl)ccc32)[C@H]1c1cccc(Cl)c1F | – | – | FVB mice, brain, plasma | – | – | Kp | 0.009
Cc1cc(-c2nccc3c2ccn3CC(=O)Nc2ccc(-c3cnccn3)cn2)ccn1 | – | – | dog | up to 30 mg/kg/day, days 5 and 25 | – | ECG effects | no effect
